# Measured values collected from several papers.
# Protocols differ between the studies behind these lines. ± gives the spread as reported.
Substance,cell line,test,system,setting,scale,endpoint,value
Cc1ccc(S(=O)(=O)N[C@@H](Cc2ccccc2)C(=O)CCl)cc1,HEK293 expressing MOR,"morphine-induced cAMP overshoot, HTRF cAMP",,"1 µM, together with: NKH 477 25 nM",reference: morphine control,efficacy,49%
CO[C@@H]1C[C@@H](C[C@H]2CC[C@H](C)[C@H]([C@@H](C)C(=O)O)O2)O[C@]2(O[C@](C)([C@H]3CC[C@@](C)([C@@H]4O[C@@H]([C@H]5O[C@@](O)(CO)[C@H](C)C[C@@H]5C)C[C@@H]4C)O3)C[C@H]2C)[C@@H]1C,HK sheep red cells,,,"0.03 µM, pH 7.4, 37 °C, unit not given, together with: low-K medium",reference: untreated cells,Na+ content change,18
CC1(C(=O)O)C2CCC(O2)C1(C)C(=O)O (stereo not shown),HEK293 expressing MOR,"morphine-induced cAMP overshoot, HTRF cAMP",,"1 µM, together with: NKH 477 25 nM",reference: morphine control,Emax,86%
O=c1cc(-c2ccc(O)c(O)c2)oc2cc(O)cc(O)c12,J-Lat 10.6 cells,refers to: GFP-positive cells,,"15 µM, 21 days, spontaneous, after wash-out",reference: DMSO 0.1%,inhibition of latency reversal,55.4 ± 1.4%
CC(=O)Oc1ccccc1C(=O)Nc1ncc([N+](=O)[O-])s1,HepG2,Seahorse respirometry,,"concentration not given, 1 h, dosed at MMP IC50, together with: 1 µM FCCP",reference: basal,OCR,127 ± 1.38%
amyloid beta-42 Met35-sulfone,rat primary cortical neurons,MTT,,"10 µM, 48 h",reference: medium control,viability decrease,40 ± 2%
PPAIIIA,"rat hippocampal neurons, AKAP150 RNAi, AKAP79 expression",FRAP,"peptide, dendritic spines","dose not given, 32 °C",,mobile fraction CN-YFP,77.1 ± 0.8%
CCCCNC(=O)OCC#CI,human iPSC-derived cardiomyocytes,beat peak frequency,,30 min,,lowest effective concentration,10 µM
O=C1CC[C@@]2(O)[C@H]3Cc4ccc(O)c5c4[C@@]2(CCN3CC2CC2)[C@H]1O5,HEK293 expressing MOR,"morphine-induced cAMP overshoot, HTRF cAMP",,"1 µM, together with: NKH 477 25 nM",reference: morphine control,Emax,102%
CC(C)Oc1cccc(CC(=O)N2CCC[C@@](CC[N+]34CCC(c5ccccc5)(CC3)CC4)(c3ccc(Cl)c(Cl)c3)C2)c1.[Cl-],HEK293 expressing NK1R,"nuclear ERK, antagonist, FRET biosensor",,"concentration not given, 30 min, together with: substance P",,ERK activity,inhibited
CC(C)c1ccc2c(c1)CC[C@H]1[C@](C)(CN)CCC[C@]21C,UACC-903,"cell growth or viability, MTS",,48 h,,IC50,1190 nM
COc1ccc2c(c1N)CCCC=C2c1cc(OC)c(OC)c(OC)c1,DU-145,"cell growth or viability, SRB",,48 h,,GI50,2.23 nM
O=C1C2CC=CCC2C(=O)N1SC(Cl)(Cl)Cl (stereo not shown),human iPSC-derived cardiomyocytes,beat peak frequency,,30 min,,lowest effective concentration,30 µM
Oc1ccc(Cl)cc1Cc1cc(Cl)ccc1O,HepG2,Seahorse respirometry,,"concentration not given, 1 h, dosed at MMP IC50, together with: 1 µM FCCP",reference: basal,OCR,164.2 ± 0.81%
CC(C)C[C@H](NC(=O)[C@@H](NC(=O)[C@@H](N)C(C)C)C(C)C)C(=O)N[C@@H](C)C(N)=O,PC-12,"Aβ42-induced neurotoxicity, inhibitor, MTT",,"concentration not given, 6 h, 37 °C, peptide to Aβ42 1:2, together with: Aβ42 2 µM",reference: untreated cells,viability,100%
CO[C@H]1/C=C\C=C(/C)C(=O)NC2=CC(=O)C(NCCN(C)C)=C(C[C@@H](C)C[C@H](OC)[C@H](O)[C@@H](C)/C=C(\C)[C@@H]1OC(N)=O)C2=O,A549 EGFR reporter cells,EGFR-induced granule formation,,"10 µM, together with: 500 nM EGF",negative means activation,inhibition,92%
CC1(COc2cc(C(F)(F)F)cc(C(F)(F)F)c2)CC(=O)CC(=O)C1,rat primary cortical neurons,cell viability,,"up to 100 µM, together with: MG132 100 nM",,neuroprotection,inactive
CC(C)=CCC[C@]1(C)C=Cc2c(O)c3c(c(CC=C(C)C)c2O1)O[C@]12C(=C[C@@H]4C[C@H]1C(C)(C)O[C@@]2(C/C=C(/C)C(=O)O)C4=O)C3=O,EJ,annexin V/PI flow cytometry,,"1.0 µM, 24 h, together with: 5 mM NAC pretreatment 2 h",,apoptotic cells,8.3 ± 0.8%
CC[C@@H](C(=O)[C@@H](C)[C@@H](O)[C@H](C)[C@@H]1O[C@@H]([C@@H](CC)C(=O)O)CC[C@@H]1C)[C@H]1O[C@]2(C=C[C@@H](O)[C@]3(CC[C@@](C)([C@H]4CC[C@](O)(CC)[C@H](C)O4)O3)O2)[C@H](C)C[C@@H]1C,MDA-MB-231,,,"half IC50, 24 h",reference: untreated,colony formation,92%
O=c1cc(-c2ccc(O)cc2)oc2cc(O)cc(O)c12,HepG2,Seahorse respirometry,,"concentration not given, 1 h, dosed at MMP IC50, together with: 1 µM FCCP",reference: basal,OCR,144.9 ± 0.66%
[Met(O)35]Aβ40,rat primary cortical neurons,TUNEL,,"10 µM, 48 h",,apoptotic cells,11.5 ± 0.7%
ClC1=C(Cl)C2(Cl)C3C(Cl)C=CC3C1(Cl)C2(Cl)Cl (stereo not shown),human iPSC-derived cardiomyocytes,beat peak frequency,,30 min,,lowest effective concentration,10 µM
CN(C)CCCNC(=O)/C=C/c1ccc2c(c1)OCO2,Raji,,,"500-fold of TPA (mol ratio), 48 h, together with: TPA 32 pmol/mL",reference: TPA alone,EBV-EA activation,53.5 ± 1.4%
CC[C@H](C)[C@H](NC(=O)[C@@H](NC(=O)[C@@H](N)C(C)C)C(C)C)C(=O)NC(C)(C)C(N)=O,PC-12,"Aβ42-induced neurotoxicity, inhibitor, MTT",,"concentration not given, 6 h, 37 °C, peptide to Aβ42 1:2, together with: Aβ42 2 µM",reference: untreated cells,viability,100%
CCCCC(CC)COP(=O)(Oc1ccccc1)Oc1ccccc1 (stereo not shown),human iPSC-derived cardiomyocytes,calcium flux,,"10 µM, 30 min",,inotropic effect,positive
CC[C@H](C)[C@H](NC(=O)[C@H](CCCCN)NC(=O)[C@@H](NC(=O)[C@H](CCC(N)=O)NC(=O)[C@H](CCCNC(=N)N)NC(=O)[C@@H](N)CC(=O)O)[C@@H](C)CC)C(=O)N[C@@H](Cc1c[nH]c2ccccc12)C(=O)N[C@@H](Cc1ccccc1)C(=O)N[C@@H](CCC(N)=O)C(=O)N[C@@H](CC(N)=O)C(=O)N[C@@H](CCCNC(=N)N)C(=O)N[C@@H](CCCNC(=N)N)C(=O)N[C@@H](CCSC)C(=O)N[C@@H](CCCCN)C(=O)N[C@@H](Cc1c[nH]c2ccccc12)C(=O)N[C@@H](CCCCN)C(=O)N[C@@H](CCCCN)C(=O)N[C@H](C(=O)N[C@@H](C)C(=O)N[C@@H](CC(C)C)C(=O)N[C@@H](CC(=O)O)C(=O)N[C@@H](Cc1c[nH]c2ccccc12)C(=O)N[C@@H](CO)C(=O)N[C@@H](Cc1c[nH]c2ccccc12)C(=O)N[C@@H](CC(C)C)C(=O)N[C@@H](CCC(N)=O)C(=O)N[C@H](C(=O)N[C@@H](CCC(=O)O)C(=O)O)[C@@H](C)O)[C@@H](C)O,rheumatoid arthritis synovial fibroblasts,,,"concentration not given, together with: IL-1β",,JNK pathway activation,no effect
O=P1(N(CCCl)CCCl)NCCCO1 (stereo not shown),U-87 MG,"cell growth or viability, WST-1",,"500 µM, 48 h",,viability,67.8%
O=C=Nc1ccc(Cl)c(Cl)c1,HepG2,Seahorse respirometry,,"concentration not given, 1 h, dosed at MMP IC50, together with: 1 µM FCCP",reference: basal,OCR,260 ± 2.92%
Cc1ccc(NC(=S)NS(=O)(=O)c2cnc(N/N=C/c3ccccc3)[nH]c2=O)cc1,RAW264.7,"qPCR, refers to: CRP",,"concentration not given, compound at quarter of IC50, together with: LPS 1 µg/mL",reference: LPS control,mRNA level,0.211 ± 0.015 fold change
COC[C@@H]([C@H](O)[C@H](O)C(=O)NCC[C@H](C)c1nc(/C=C/C[C@@H]2O[C@]3(C[C@@H](O)[C@@H]2C)O[C@H]([C@H](C[C@H](O)[C@H](C)[C@H](O)[C@H](C)/C=C(C)/C(C)=C/C=C/C(C)=C\C#N)OC)[C@H](OP(=O)(O)O)C3(C)C)co1)N(C)C,COS-7 overexpressing both,,,"concentration not given, 1 h",,Cables1 binding to 14-3-3γ,increased
CC[C@H](C)[C@H](NC(=O)C(C)(C)NC(=O)[C@@H](N)C(C)C)C(=O)N[C@@H](C)C(N)=O,PC-12,"Aβ42-induced neurotoxicity, inhibitor, MTT",,"concentration not given, 6 h, 37 °C, peptide to Aβ42 1:2, together with: Aβ42 2 µM",reference: untreated cells,viability,93%

# Some of these lines once more:
Substance,cell line,test,system,setting,scale,endpoint,value
O=C1CC[C@@]2(O)[C@H]3Cc4ccc(O)c5c4[C@@]2(CCN3CC2CC2)[C@H]1O5,HEK293 expressing MOR,"morphine-induced cAMP overshoot, HTRF cAMP",,"1 µM, together with: NKH 477 25 nM",reference: morphine control,Emax,102%
[Met(O)35]Aβ40,rat primary cortical neurons,TUNEL,,"10 µM, 48 h",,apoptotic cells,11.5 ± 0.7%
CC(C)=CCC[C@]1(C)C=Cc2c(O)c3c(c(CC=C(C)C)c2O1)O[C@]12C(=C[C@@H]4C[C@H]1C(C)(C)O[C@@]2(C/C=C(/C)C(=O)O)C4=O)C3=O,EJ,annexin V/PI flow cytometry,,"1.0 µM, 24 h, together with: 5 mM NAC pretreatment 2 h",,apoptotic cells,8.3 ± 0.8%
CC(C)c1ccc2c(c1)CC[C@H]1[C@](C)(CN)CCC[C@]21C,UACC-903,"cell growth or viability, MTS",,48 h,,IC50,1190 nM
